Results of several laboratories.
Several values in a cell are separate wells, animals, samples, runs or records. Numbers after ± are the reported error.
CNR2: Cannabinoid receptor 2 (CNR2, Homo sapiens, UniProt P34972)
HDAC11: Histone deacetylase 11 (HDAC11, Homo sapiens, UniProt Q96DB2)
NAA40: N-alpha-acetyltransferase 40 (NAA40, Homo sapiens, UniProt Q86UY6)
cah: cah (Neisseria gonorrhoeae, UniProt Q50940)
MAOA: Amine oxidase [flavin-containing] A (MAOA, Homo sapiens, UniProt P21397)

`CCOC(=O)C(CC)(CCCSCCCCCCNc1ccc([N+](=O)[O-])c2nonc12)NC(=O)c1ccc(C2CC2)c(Cc2ccc(F)cc2)n1` (centres unmarked) gave a Ki of 55 nM (CNR2; ligand displacement, radioligand; cell membranes).
`CC[C@H](C)[C@@H]1NC(=O)[C@H](Cc2ccccc2C(F)(F)F)NC(=O)CCSCc2cccc(n2)CSCCCNC(=O)[C@H](CCCCCC(=O)N(O)CCCCCCCl)NC1=O` gave a Ki of 13 nM (HDAC11; enzyme activity, inhibitor, fluorescence).
`CC(C)(COP(=O)(O)OP(=O)(O)OC[C@H]1O[C@@H](n2cnc3c(N)ncnc32)[C@H](O)[C@@H]1OP(=O)(O)O)[C@@H](O)C(=O)NCCC(=O)NCCSCC(=O)N[C@@H](CO)C(=O)NCC(=O)N[C@@H](CCCNC(=N)N)C(N)=O` has a Ki of 84 nM (NAA40; enzyme activity, inhibitor, fluorescence).
`O=C(O)CCNC(=S)NCCCC[C@H](NS(=O)(=O)c1cccc(F)c1)C(=O)N[C@@H](Cc1c[nH]c2ccccc12)C(=O)NC1CCC1` has a Ki of 2.5 nM (SIRT5 (Homo sapiens, UniProt Q9NXA8); enzyme activity, inhibitor).
`CC(C)(COP(=O)(O)OP(=O)(O)OC[C@H]1O[C@@H](n2cnc3c(N)ncnc32)[C@H](O)[C@@H]1OP(=O)(O)O)[C@@H](O)C(=O)NCCC(=O)NCCSCCC(=O)N[C@@H](CO)C(=O)NCC(=O)N[C@@H](CCCNC(=N)N)C(=O)NCC(=O)N[C@@H](CCCCN)C(N)=O` has a Ki of 46 nM (NAA40; enzyme activity, inhibitor, fluorescence).
`CCOC(=O)C(CC)(CCCSCCOCCOCCNC(=O)OC(C)(C)C)NC(=O)c1ccc(C2CC2)c(Cc2ccc(F)cc2)n1` (racemic) gave a Ki of 164 nM (CNR2; ligand displacement, radioligand; cell membranes).
With `Cc1nc(-c2c[nH]c(C(=O)Nc3ncccc3O)c2)cs1` the Ki was 174000 nM and 234000 nM and 201000 nM (Serine protease 1 (PRSS1, Homo sapiens, UniProt P07477); mixed inhibitor, Z-GPR-pNA substrate).
The Ki of `CCOC(=O)C(CC)(CCCSCCCCCCN)NC(=O)c1ccc(C2CC2)c(Cc2ccc(F)cc2)n1` (centres unmarked) is reported as 2.7 nM (CNR2; ligand displacement, radioligand; cell membranes).
The Ki of `CC(=O)N[C@@H](CC(C)C)C(=O)N[C@@H](CC(C)C)C(=O)N[C@@H](CC(C)C)C(=O)N[C@@H](CC(C)C)C(=O)N[C@@H](CCCNC(=N)N)C(=O)N[C@H](C(=O)N[C@@H](CCCCN)C(=O)N[C@@H](CCCNC(=N)N)C(N)=O)C(C)C` is reported as 1690 nM (Proprotein convertase subtilisin/kexin type 7 (Homo sapiens, UniProt Q16549); enzyme activity, inhibitor).
For `Cc1c(OS(=O)(=O)Oc2ccc(C(C)C)cc2)cccc1C(=O)NO`, the Ki was 178 nM (HDAC11).
With `CCOC(=O)C(CC)(CCCSCCOCCNc1ccc([N+](=O)[O-])c2nonc12)NC(=O)c1ccc(C2CC2)c(Cc2ccc(F)cc2)n1` (centres unmarked) the Ki was 22 nM (CNR2; ligand displacement, radioligand; cell membranes).
For `NCCCC[C@H](NN)C(=O)O`, the Ki was 5900 ± 1400 nM (Inducible lysine decarboxylase (Hafnia alvei, UniProt G9Y9L1)).
For `C=C1C[C@@]2(C(=O)OC)C=C(C(=O)Nc3cccc(C(=O)Nc4ccc(Nc5nccc(-c6cccnc6)n5)c(C)c4)c3)C(=O)[C@@H]1C2`, the Ki was 3.1 nM (MAPK8 (Homo sapiens, UniProt P45983); SPR two-step binding model; wild-type protein surface).
The Ki of `CCCCC1CCC(=O)O1` (centres unmarked) is reported as 51700 nM (cah; enzyme activity, inhibitor, stopped-flow).
The Ki of `CCOC(=O)[C@@H](CCSC)NC(=O)c1ccc(C2CC2)c(Cc2ccc(F)cc2)n1` is reported as 65 nM (CNR2; ligand displacement, radioligand; cell membranes).
The Ki of `O=C1CCCCO1` is reported as 67200 nM (cah; enzyme activity, inhibitor, stopped-flow).
The Ki of `Cn1ccc2c(N3CCN(CCCCOc4ccc5c(c4)NC(=O)CC5)CC3)cccc21` is reported as 2200 nM (ADRA1D (Homo sapiens, UniProt P25100); ligand displacement, radioligand).
`CC[C@H]1CN([C@@H](CC)c2ccc(C(F)(F)F)cc2)[C@H](CC)CN1c1nc(=O)n(C)c2ccc(C#N)nc12` has a Ki of 11 nM (DGKA (Homo sapiens, UniProt P23743); enzyme activity, inhibitor, fluorescence).
`CCOC(=O)C(CC)(CCCSCCOCCOCCOCCN)NC(=O)c1ccc(C2CC2)c(Cc2ccc(F)cc2)n1` (centres unmarked) gave a Ki of 18 nM (CNR2; ligand displacement, radioligand; cell membranes).
`CC(C)(COP(=O)(O)OP(=O)(O)OC[C@H]1O[C@@H](n2cnc3c(N)ncnc32)[C@H](O)[C@@H]1OP(=O)(O)O)[C@@H](O)C(=O)NCCC(=O)NCCSCC(=O)N[C@@H](CO)C(=O)NCC(=O)N[C@@H](CCCNC(=N)N)C(=O)NCC(=O)N[C@@H](CCCCN)C(=O)NCCCC[C@H](NC(=O)CC[C@@H]1NC(=O)[C@@H](CCCNC(=N)N)NC(=O)[C@H](CCCNC(=N)N)NC(=O)[C@@H](CCCNC(=N)N)NC(=O)[C@H](CCCNC(=N)N)NC(=O)[C@H](Cc2csc3ccccc23)NC(=O)[C@@H](Cc2ccccc2)NC(=O)[C@H](Cc2ccccc2)NC1=O)C(N)=O` has a Ki of 39 nM (NAA40; enzyme activity, inhibitor, fluorescence).
The Ki of `Cc1c(OS(=O)(=O)Oc2ccccc2-c2ccccc2)cccc1C(=O)NO` is reported as 272 nM (HDAC11).
For `OCC1OC(n2cnc3c(NCc4ccc(Br)s4)ncnc32)C(O)C1O` (centres unmarked), the Ki was 1700 nM (ADORA2A (Homo sapiens, UniProt P29274); ligand displacement, radioligand).
With `O=C1CCc2c(ccc3ccccc23)O1` the Ki was 12700 nM (cah; enzyme activity, inhibitor, stopped-flow).
`Cc1c(OS(=O)(=O)Oc2ccc3ccccc3c2)cccc1C(=O)NO` has a Ki of 458 nM (HDAC11).
With `O=C1c2cc(O)cc(O)c2C(=O)c2c(O)cc(CO)cc21` the Ki was 28800 nM (MAOA; enzyme activity, inhibitor).
For `COC1CN([C@H]2CC[C@H]([C@@]3(C)Oc4c(Cl)cc(C(=O)NCc5c(SC)cc(C)[nH]c5=O)c(C)c4O3)CC2)C1`, the Ki was 0.055 nM (Histone-lysine N-methyltransferase EZH1, in PRC2 complex (EZH1, Homo sapiens, UniProt Q92800); enzyme activity, inhibitor; added: activator peptide).
For `CCc1c(Cl)cccc1N1CCN(C[C@@H](F)CCNC(=O)c2cc3ccccc3[nH]2)CC1`, the Ki was > 10000 nM (DRD1 (Homo sapiens, UniProt P21728); ligand displacement, radioligand; cell membranes).
For `CCOC(=O)C(CC)(CCCSCCCCCCNC(=O)OC(C)(C)C)NC(=O)c1ccc(C2CC2)c(Cc2ccc(F)cc2)n1` (centres unmarked), the Ki was 140 nM (CNR2; ligand displacement, radioligand; cell membranes).
The Ki of `Cc1cc(O)c2c(c1)C(=O)c1cc(O)c(O)c(O)c1C2=O` is reported as 56500 nM (MAOA; enzyme activity, inhibitor).

Excerpt of the above:
With `O=C1c2cc(O)cc(O)c2C(=O)c2c(O)cc(CO)cc21` the Ki was 28800 nM (MAOA; enzyme activity, inhibitor).
For `COC1CN([C@H]2CC[C@H]([C@@]3(C)Oc4c(Cl)cc(C(=O)NCc5c(SC)cc(C)[nH]c5=O)c(C)c4O3)CC2)C1`, the Ki was 0.055 nM (Histone-lysine N-methyltransferase EZH1, in PRC2 complex (EZH1, Homo sapiens, UniProt Q92800); enzyme activity, inhibitor; added: activator peptide).
